Published values gathered from unrelated publications.
Numbered parts are unrelated; each lists some results of a single study. Positions count from the first letter of the parent shown.

Sample 1 — target: CCNE1, cyclin fold, Cln2 fusion (human); technique: yeast growth competition, sequencing; matrix: yeast; setting: weak parent motif; baseline: not given; direction: higher = stronger binding
Starting sequence: BORA docking peptide (human); SSLRRKLFLDGNG
| Variant | normalised enrichment score |
| --- | --- |
| R5A L7A | -0.364 |
| R5K | 0.739 |
| N12A | 1.41 |
| L3A | 4.34 |
| K6A | 0.973 |
| R5K F8L | 0.254 |
| R4A | 0.652 |
| G13A | 0.861 |
| S2A | 0.909 |
| R5K L9F | 1.05 |
| L7A | -0.174 |

Sample 2 — technique: DHFR PCA, deep sequencing; matrix: yeast; with: (+)-ABA 200 µM; baseline: wild-type fitted maximum; direction: higher = stronger binding
Target: ABI1, truncated, D143A, DHFR fusion (Arabidopsis thaliana)
Setting: methotrexate growth selection, single substitutions
Starting sequence: PYL1, truncated, DHFR fusion (Arabidopsis thaliana); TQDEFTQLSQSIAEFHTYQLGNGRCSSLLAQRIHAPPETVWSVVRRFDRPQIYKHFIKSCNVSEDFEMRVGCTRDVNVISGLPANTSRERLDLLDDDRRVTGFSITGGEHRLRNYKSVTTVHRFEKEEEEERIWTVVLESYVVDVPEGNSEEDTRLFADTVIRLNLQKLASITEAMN; partner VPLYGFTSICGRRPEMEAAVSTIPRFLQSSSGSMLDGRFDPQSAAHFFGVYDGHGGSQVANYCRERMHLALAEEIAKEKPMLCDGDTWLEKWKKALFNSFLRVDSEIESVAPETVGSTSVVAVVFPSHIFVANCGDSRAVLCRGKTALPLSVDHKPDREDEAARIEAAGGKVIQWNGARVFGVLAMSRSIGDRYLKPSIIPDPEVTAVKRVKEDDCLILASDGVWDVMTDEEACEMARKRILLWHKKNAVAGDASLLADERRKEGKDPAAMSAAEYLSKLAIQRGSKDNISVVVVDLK
| Variant | relative binding score [%] |
| --- | --- |
| T39K | 102 |
| D144M | 60.3 |
| N177R | 74.1 |
| R90W | 0.694 |
| Q7E | 95 |
| L8I | 89.9 |
| R88S | 98.4 |
| S42N | 95 |
| R74S | -3.42 |
| D144Y | 32.4 |
| G23F | 86.6 |
| I162W | 0.626 |
| T120D | 3.25 |
| F103Y | 100 |
| L166S | -8.47 |
| P83L | 4.06 |
| E151G | 93.8 |

Sample 3 — technique: protein binding microarray; form: double-stranded DNA, one strand shown; matrix: in vitro; tested at: not given; baseline: not given; direction: higher = stronger binding
Target: Histone acetyltransferase KAT6A, both winged helices, GST fusion (KAT6A, Homo sapiens, UniProt Q92794, residues 1-181)
Setting: 8-mer, flanks averaged, mean of 2 arrays, mostly near background
Residues (chain): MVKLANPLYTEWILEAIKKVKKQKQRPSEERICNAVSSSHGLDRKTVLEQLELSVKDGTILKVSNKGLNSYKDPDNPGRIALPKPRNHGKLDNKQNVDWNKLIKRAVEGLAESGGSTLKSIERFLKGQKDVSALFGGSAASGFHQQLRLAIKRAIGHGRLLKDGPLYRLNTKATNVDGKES
| Oligonucleotide | E-score |
| --- | --- |
| CGATGTGC | 0.0979 |
| CACGTAAC | 0.0718 |
| AGCTTGTC | 0.00651 |
| CAGTCCGA | 0.125 |
| AAGCGGCG | 0.321 |
| CCGCGTAG | 0.195 |
| ATGTTCGA | -0.0752 |
| AAACCAGA | -0.222 |
| CAATTAAC | 0.0541 |
| GCAACTAC | -0.0199 |
| ATTCGGGG | 0.0764 |
| CAGCAAGA | -0.196 |
| CCCCAAGC | -0.0759 |
| ATCAAACA | -0.111 |
| CTCGACTC | -0.102 |
| AGAGGTAT | -0.0203 |
| CAATAATG | 0.0107 |
| GAACAGGC | 0.0094 |
| CACTCCGG | 0.0162 |
| CATCACGA | -0.134 |

Sample 4 — technique: protein-binding microarray; form: double-stranded DNA, one strand shown; matrix: in vitro; tested at: 940 nM top; setting: 60-bp whole probe; with: salmon DNA 0.4 mg/ml; baseline: random background probes; direction: higher = stronger binding; shared flanks, not repeated: GCCTAGCAC … GTCTTGATTCGCTTGACGCTGCTG
Target: Interferon regulatory factor 5, full length, phosphomimetic (IRF5, Homo sapiens, UniProt Q13568-2, residues 1-514, S451D/S453D/S456D/S462D)
| Oligonucleotide | fitted relative affinity [z-score] |
| --- | --- |
| TCATTAATGCTTCTGGGACTGTGCTAG | 0.0825 |
| TTAGGTATCGGGTTTCGGTTGGTGCTA | 8.55 |
| TTAGGACTGGACACTGGGGTAGTGCTA | -0.381 |
| TTAGATCTCAATTTCGATTAGTGCTAG | 1.46 |
| TTAGCACTGCTACTGCTTTAGTGCTAG | -0.283 |
| TCAGGCCTCTTCATTCATACTGTGCTA | 0.2 |
| GATGGGCTACCTCTCTTAGAGTGCTAG | -0.354 |
| TCATATGTGACCTTTTTAACTGTGCTA | 0.242 |
| TTAGGTTTCGGGTCTGGGTTAGTGCTA | 10.4 |
| CCGAGTCCCTATCTCCTCACGTGCTAG | 0.182 |
| GTCGATCTCAGTTTCGAGACGTGCTAG | 6.57 |
| GACGATATCGGTTTCGAGACGTGCTAG | 4.01 |
| GACGTACTGGGGACTGGAGACGTGCTA | -0.198 |
| TACGGTTTCCTTATCCTGACGTGCTAG | 1.43 |
| TTAGATATAGGGACTGGATTAGTGCTA | -0.121 |
| AAAAAAATCATTTTCTCTGTGTGCTAG | 0.027 |
| GACGGTCTGGGACTGGGGACGTGCTAG | -0.343 |
| TCATCTCCCAGACTGGAGTGGTGCTAG | -0.634 |
| AAACAAGTCAATGGCCTTTCGTGCTAG | -0.356 |

Sample 5 — target: CREM, bZIP domain (human); technique: DHFR protein complementation; matrix: yeast; baseline: wild-type JUN-FOS pair; direction: higher = stronger binding
Setting: single substitutions, most at no-binding floor
Starting sequence: JUN, bZIP domain (human); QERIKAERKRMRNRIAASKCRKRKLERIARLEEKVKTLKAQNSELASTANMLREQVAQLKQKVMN; partner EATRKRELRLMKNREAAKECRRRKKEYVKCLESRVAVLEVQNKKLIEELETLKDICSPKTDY
| Variant | binding fitness [natural log] |
| --- | --- |
| E54G | -1.49 |
| M51D | -1.34 |
| E32F | -1.4 |
| A29K | -1.44 |
| A49N | -1.56 |
| I28E | -1.34 |
| S47Q | -1.4 |
| R53T | -1.49 |
| A40R | -1.37 |
| K36P | -1.43 |
| V35G | -1.53 |
| M51V | -1.42 |
| K39D | -1.46 |
| A29C | -1.4 |
| I28P | -1.5 |
| V35C | -1.41 |
| A49E | -1.52 |
| K36A | -1.39 |
| Q41E | -1.45 |
| E44N | -1.4 |
| S43M | -1.38 |
| K39V | -1.41 |
| K39H | -1.52 |
| M51N | -1.47 |
| A57E | -1.39 |

Other studies, line by line
| Substance | target | test | system | setting | scale | endpoint | result |
| --- | --- | --- | --- | --- | --- | --- | --- |
| PhoQ, residues 284 288 289 292 302 303 TNASYF | PhoP, residues 12 14 15 18 19 IQSYL (Escherichia coli, UniProt P23836) | Sort-seq, measured: YFP reporter | E. coli | PhoQ-PhoP variant library, with: 10 µM Mg2+ | baseline: high Mg2+ state, higher = stronger signaling | fold induction | 9.18 |

Excerpt of the above (sample 2):
| Variant | relative binding score [%] |
| --- | --- |
| N177R | 74.1 |
| R90W | 0.694 |
| Q7E | 95 |
| L8I | 89.9 |
| R88S | 98.4 |
| S42N | 95 |
